# Assay results from different studies.
# Protocols differ between the studies behind these lines. Numbers after ± are the reported error.
# Organism: HIV-1
SMILES,assay,system,conditions,IC50 [nM]
CC[C@H](C)[C@H](NC(=O)[C@H](CC(C)C)NC(=O)[C@H](CCC(=O)O)NC(=O)[C@H](CCC(=O)O)NC(=O)[C@@H](NC(=O)[C@H](CCCCN)NC(=O)[C@H](CCCCN)NC(=O)[C@@H](NC(=O)[C@H](Cc1ccc(O)cc1)NC(=O)[C@H](CCC(=O)O)NC(=O)[C@H](CCC(=O)O)NC(=O)[C@@H](NC(=O)[C@H](CCCCN)NC(=O)[C@H](CCCCN)NC(=O)[C@H](CC(=O)O)NC(=O)[C@H](Cc1c[nH]c2ccccc12)NC(=O)[C@H](CCC(=O)O)NC(=O)[C@H](CCC(=O)O)NC(=O)[C@H](Cc1c[nH]c2ccccc12)NC(=O)[C@@H](NC(=O)[C@@H](N)CCSC)[C@@H](C)O)[C@@H](C)CC)[C@@H](C)O)[C@@H](C)CC)C(=O)N[C@@H](CCCCN)C(=O)N[C@@H](CCCCN)C(=O)N[C@@H](CO)C(=O)O,virus neutralization,BG505,,15.2 ± 0.2
Nc1ccn([C@H]2CC[C@@H](CO)O2)c(=O)n1,"viral replication, MTT",MT4,,330 ± 130
COc1cc(/C=C/C(=O)CC(=O)/C=C/c2ccc(OCCOC(=O)CCC(NC(=O)c3ccc(NCc4cnc5nc(N)[nH]c(=O)c5n4)cc3)C(=O)O)c(OC)c2)ccc1O (stereo not drawn),"viral replication, MTT","MT-4, IIIB",,> 63
O=c1cc(-c2ccc(O)c(O)c2)oc2cc(O)cc(O)c12,viral replication,"TZM-bl, BaL, CCR5-tropic",48 h,2220 ± 690
CC(C)(C)C(=O)OCOP(=O)(COCCn1cnc2c(N)ncnc21)OCOC(=O)C(C)(C)C,"viral replication, MTT",MT4,,240 ± 120
COc1cc(-c2oc3cc(O)cc(O)c3c(=O)c2O)ccc1O,viral replication,"TZM-bl, NL4-3, CXCR4-tropic",48 h,640
Cc1ccc(-c2ccc3c(c2)C=C(C(=O)Nc2ccc(C[N+](C)(C)C4CCOCC4)cc2)CCC3)cc1,viral replication,PBMC,,14 ± 8
CSCC[C@@H]1NC(=O)[C@H](Cc2ccc(O)cc2)NC(=O)[C@@H](NC(=O)[C@H](CC(C)C)NC(=O)[C@@H](N)CCCNC(=N)N)CSSC[C@@H](C(=O)N2CCC[C@H]2C(=O)O)NC(=O)[C@@H]2CCCN2C(=O)[C@H](CC(C)C)NC(=O)[C@H](C(C)C)NC1=O,HIV-1 Env cell-cell fusion,CHO-WT and MT2 cells,"48 h, 37 °C",6570 ± 250
C#C[C@@]1(CO)C=C[C@H](n2cc(C)c(=O)[nH]c2=O)O1,"viral replication, MTT",MT4,,260 ± 10
CCCOn1cc(CC(=O)Nc2ccncc2Cl)c2ccccc21,viral replication,HEK293T,,70 ± 20
CC(=O)N[C@@H](CO)C(=O)N[C@@H](CO)C(=O)N[C@@H](Cc1c[nH]cn1)C(=O)N[C@@H](Cc1ccccc1)C(=O)N1CCC[C@H]1C(=O)N[C@@H](Cc1c[nH]c2ccccc12)C(=O)N[C@@H](CO)C(=O)N[C@@H](CCC(N)=O)C(=O)N[C@@H](Cc1ccc(O)cc1)C(=O)N[C@@H](CCC(N)=O)C(=O)N[C@@H](Cc1ccccc1)C(=O)N[C@@H](Cc1c[nH]c2ccccc12)C(=O)N[C@@H](CCCCN)C(N)=O,viral entry,"TZM-bl, YU2 (R5) pseudovirus",48 h,122000 ± 19000
COc1ccc(S(=O)(=O)N(CC(C)C)C[C@@H](O)[C@H](Cc2ccccc2)NC(=O)O[C@H]2CCO[C@H]3OC[C@@H](OC)[C@H]32)cc1,"viral replication, MTT",,,47
Cc1cn([C@H]2C[C@H](N=[N+]=[N-])[C@@H](CO)O2)c(=O)[nH]c1=O,virus neutralization,SF162,,110 ± 23.5
N#C[C@]1(CO)O[C@@H](n2cnc3c(N)nc(N)nc32)C[C@@H]1O,,MT-4,,0.3
CC(C)C[C@H](NC(=O)CCCCCNC(=O)CCCC[C@@H]1SC[C@@H]2NC(=O)N[C@@H]21)C(=O)N[C@@H](CS)C(=O)N[C@@H](CC(=O)O)C(=O)N[C@@H](CO)C(=O)N1CCC[C@H]1C(=O)N[C@@H](CC(N)=O)C(=O)NCC(=O)N1CCC[C@H]1C(=O)N[C@@H](Cc1c[nH]c2ccccc12)C(=O)N[C@H](C(=O)N[C@@H](Cc1c[nH]c2ccccc12)C(=O)N[C@H](C(=O)N1CCC[C@H]1C(=O)N[C@@H](C)C(=O)N[C@@H](Cc1ccccc1)C(=O)N[C@@H](CO)C(=O)N[C@@H](CCC(N)=O)C(=O)N[C@@H](C)C(=O)N[C@H](C(=O)NCC(=O)O)C(C)C)C(C)C)C(C)C,"viral replication, inhibitor, SEAP reporter","CEMx174 SEAP reporter, NL4-3",3 days,54600 ± 10000
CCCOn1cc(CC(=O)Nc2ccccc2Cl)c2ccccc21,viral replication,HEK293T,,490 ± 110
CC(C)C[C@H](NC(=O)CCCCCNC(=O)CCCC[C@@H]1SC[C@@H]2NC(=O)N[C@@H]21)C(=O)N[C@@H](CO)C(=O)N[C@@H](CC(=O)O)C(=O)N[C@@H](CO)C(=O)N1CCC[C@H]1C(=O)N[C@@H](CC(N)=O)C(=O)NCC(=O)N1CCC[C@H]1C(=O)N[C@@H](Cc1c[nH]c2ccccc12)C(=O)N[C@H](C(=O)N[C@@H](Cc1c[nH]c2ccccc12)C(=O)N[C@H](C(=O)N1CCC[C@H]1C(=O)N[C@@H](C)C(=O)N[C@@H](Cc1ccccc1)C(=O)N[C@@H](CS)C(=O)N[C@@H](CCC(N)=O)C(=O)N[C@@H](C)C(=O)N[C@H](C(=O)NCC(=O)O)C(C)C)C(C)C)C(C)C,"viral replication, inhibitor, SEAP reporter","CEMx174 SEAP reporter, NL4-3",3 days,10900 ± 2280
Cc1cn(C2CC(O)C(C#N)(CO)O2)c(=O)[nH]c1=O (stereo not drawn),"viral replication, MTT","MT4, K65R",,2 ± 0.01
CCCCCCCCCC(=O)Oc1ccc(/C=C/C(=O)CC(=O)/C=C/c2ccc(OC(=O)CCCCCCCCC)c(OC)c2)cc1OC,"viral replication, MTT","MT-4, IIIB",,> 81
Nc1nc(NC2CC2)c2ncn([C@H]3C=C[C@@H](CO)C3)c2n1,viral cytopathicity,"MT4 cells, wild type",,262
CC1(C)Oc2ccc(-c3ccc(C(=O)NC(CN)c4ncc(CO)s4)[nH]3)cc2O1 (stereo not drawn),pseudovirus infection,TZM-bl,,> 24000
C=C(C)[C@]12C[C@@H](COC(=O)c3ccccc3)[C@@]34OC5(O[C@@H]1[C@@H]3[C@@H]1O[C@]1(COC(C)=O)[C@@H](OC(C)=O)[C@@]1(O)[C@H]4[C@H]([C@H](C)[C@@H]1OC(=O)c1ccccc1)[C@H](C)CCCCCC[C@H]5OC(C)=O)O2,"viral replication, inhibitor","MT-4 cells, NL4-3 NanoLuc-sec",72 h,> 1
N#C[C@]1(CO)O[C@@H](n2cnc3c(=O)[nH]c(N)nc32)C[C@@H]1O,,NL4-3 wild type,,0.042
COc1ccccc1NC(=O)c1ccccc1OCc1ccc(C#N)cc1,"viral replication, item: reverse transcriptase activity","H9 expressing APOBEC3G, LAI",7 d,3100
Cc1cn([C@H]2C=C[C@@H](CO)O2)c(=O)[nH]c1=O,"viral replication, MTT",MT4,,650 ± 30
Cc1nc(C(NC(=O)c2ccc(-c3ccc(Cl)cc3)[nH]2)C2CCCCN2)sc1CO (mixture of isomers),Env pseudovirus infection,"TZM-bl, panel of 56 Env pseudoviruses",,2380
Cc1nc(C(CN)NC(=O)C(=O)Nc2ccc3c(c2)OCO3)sc1CO (stereo not drawn),pseudovirus infection,TZM-bl,,> 53000
